Results gathered from unrelated publications.
Parts stem from different laboratories: compare values within a part only. Positions count from the first letter of the parent shown.

Study 1
Target: ABI1, truncated, D143A, DHFR fusion (Arabidopsis thaliana)
Technique: DHFR PCA, deep sequencing
Sample: yeast
Setting: methotrexate growth selection, single substitutions
With: (+)-ABA 2500 µM
Baseline: wild-type fitted maximum
Reading: higher = stronger binding
Starting sequence: PYL1, truncated, DHFR fusion (Arabidopsis thaliana); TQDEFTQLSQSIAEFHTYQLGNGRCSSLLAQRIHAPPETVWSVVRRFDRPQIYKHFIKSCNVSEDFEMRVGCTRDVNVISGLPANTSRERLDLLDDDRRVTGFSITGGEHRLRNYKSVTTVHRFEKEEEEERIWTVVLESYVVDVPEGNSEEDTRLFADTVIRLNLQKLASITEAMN
Substitution	relative binding score
E64N	96.5%
R132E	110%
V161C	89.8%
P50E	1.66%
I52D	104%
S80Q	84.9%
R113A	111%
K168P	-3.29%
Y141G	0.895%
N114F	72.2%
R111K	93.3%
Q51V	75.2%
G107S	102%
M68E	88.5%
R45L	16.7%
E64K	97.6%
E109N	102%

Study 2
Target: Ras GTPase-activating protein-binding protein 1, C-terminal RGG region (G3BP1, Homo sapiens, UniProt Q13283)
Chain of UniProt Q13283 (whole entry, looked up): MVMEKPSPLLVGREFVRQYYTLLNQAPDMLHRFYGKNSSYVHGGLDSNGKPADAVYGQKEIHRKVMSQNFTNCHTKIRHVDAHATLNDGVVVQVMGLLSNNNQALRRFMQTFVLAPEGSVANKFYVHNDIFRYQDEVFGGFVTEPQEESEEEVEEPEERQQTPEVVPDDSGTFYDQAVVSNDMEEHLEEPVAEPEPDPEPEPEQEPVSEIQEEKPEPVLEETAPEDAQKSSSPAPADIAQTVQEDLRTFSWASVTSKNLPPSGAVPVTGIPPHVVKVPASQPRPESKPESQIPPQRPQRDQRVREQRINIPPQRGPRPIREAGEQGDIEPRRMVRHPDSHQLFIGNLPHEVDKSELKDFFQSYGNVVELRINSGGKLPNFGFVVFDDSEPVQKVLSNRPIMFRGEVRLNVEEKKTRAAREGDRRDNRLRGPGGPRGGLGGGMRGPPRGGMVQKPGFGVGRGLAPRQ
Technique: RNA Bind-n-Seq
Form: RNA
Sample: in vitro
Tested at: 1 µM
Setting: whole 134-nt RNA, ends assumed
With: 150 mM KCl
Baseline: input library
Reading: higher = stronger binding
All sequences stand within: GGGAGUUCUACAGUCCGACGAUC … UGGAAUUCUCGGGUGUCAAGG
Sequence	log2 enrichment
AAGUCCUGUGCUACACAUCGUAUGUACCGAAUCGGGGUUUUUGGGGUGGGGAGGGGAAAGUAUUAUGUUACGCCGUUCGGAUCUGCACUU	2.14
CACAGACAACACGCACCCACACAGACACAGAGGGAAGGGGUUGGGAUGGGGACAGGGUCCACAGCAGGGCGGGGUAGGACCCCAGCCCCU	-0.521
GCAGGAAGCAAAAACAAAUGGAAAUGCUUCGGAUAGUGGCAGGGGUGGGGGUUGCUAAGGAAAGGGUGGGAUGGGAGUGGGUAAAGAGUU	1.76
CACAGACAACACGCACCCACACAGACACAGAGGGAAGGGGUUGGGAUGGGGACAGGGUGCACAGCAGGGCGGGGAAAGACCCCAGCCCCU	-0.144
UAACUUUAGAGGAGGAUCUGAUGGAUAUGGCAGUGGACGUGGAUUUGGGGAAGGCUAUAAUGGGUAUGGAGGAGGACCUGGAGGUGGCAA	-0.268
AAGUCCUGUGCUACACAUCGUAUGUACCGAAUCGGGAAAGGGUUUGGGAAAAAGGGAAAGUAUUAUGUUACGCCGUUCGGAUCUGCACUU	0.848
CUGUGCUACACAUCGUAUGUACCGAAUCGGUUUUUUUGGGUUUUUUUGGGGUUUUUUUGGGAAAGUAUUAUGUUACGCCGUUCGGAUCUG	-1.25
CUCAAGUCCUGUGCUACACAUCGUAUGUACCGAAUCGGGGCCGGCCGGCCGGGAAAGUAUUAUGUUACGCCGUUCGGAUCUGCACUUCCA	-0.884
UUUCAGGGGAGCUCUUUGCUCAGGCCCCGGUGGAUCAGUUUCCUGGCACAGCUGUGGAGAGUGUGACGGAUUCCAGCAGGUACUUCGUGA	-1.85
GCAGGAAGUAAAAACAAAUGGAAACGCUUCGGAUAGUGGCAGGGGUGGGGGUUGCUAAGGAAAGGGUGGGAUGGGAGUGGGUAAAGAGUU	1.8
CUGUGCUACACAUCGUAUGUACCGAAUCGGGCCCCCCCGGCCCCCCCGGGGCCCCCCCGGGGAAAGUAUUAUGUUACGCCGUUCGGAUCU	-2.46
AAGUCCUGUGCUACACAUCGUAUGUACCGAAUCGGUUUUUGGUUUUUGGUUUUUGGAAAGUAUUAUGUUACGCCGUUCGGAUCUGCACUU	-1.83
AAGUCCUGUGCUACACAUCGUAUGUACCGAAUCGGGGAAAGGAAAGGGGAAAGGGGAAAGUAUUAUGUUACGCCGUUCGGAUCUGCACUU	-0.243
UAACUUUCGAGGAGGAUCUGAUGGAUAUGGCAGUGGACGUGGAUUUGGGGAUGGCUAUAAUGGGUAUGGAGGAGGACCUGGAGGUGGCAA	-1.27

Study 3
Target: Histone acetyltransferase KAT6A, winged helix 2, GST fusion (KAT6A, Homo sapiens, UniProt Q92794, residues 85-181)
Technique: protein binding microarray
Form: double-stranded DNA, one strand shown
Sample: in vitro
Tested at: not given
Setting: 8-mer, flanks averaged, mean of 2 arrays, mostly near background
Baseline: not given
Reading: higher = stronger binding
Construct (chain): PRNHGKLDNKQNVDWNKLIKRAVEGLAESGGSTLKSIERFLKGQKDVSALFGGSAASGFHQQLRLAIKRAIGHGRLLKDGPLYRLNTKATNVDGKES
Sequence	E-score
AAAGTCCA	-0.14
ACGGTACG	-0.098
CAATGGAA	0.075
GCAGTACA	0.0486
GATGTAGA	-0.158
ATACTTCA	-0.0577
TCACGTCA	-0.0511
ACTAGATA	0.0354
TGCTACAA	0.141
ATTGCCCC	0.0259
CTCAGCTC	-0.11
CGAATAAC	-0.0943
CCCGATTC	0.1
CAGCCCCG	0.0568
AGCCAGAC	0.0187
CCGGGATA	0.0121
AATTCTAC	0.0555
GAGTTCGC	0.179
CAGGTCCA	-0.0979
CCAATACA	0.0495
CGACCTTA	-0.0514

Study 4
Target: CCNB1, cyclin fold, Cln2 fusion (human)
Technique: yeast growth competition, sequencing
Sample: yeast
Setting: weak parent motif
Baseline: not given
Reading: higher = stronger binding
Starting sequence: TICRR docking peptide (human); TKVRRNLFNQELL
Substitution	normalised enrichment score
TKVARNLFNQELL [R4A]	-0.535
TKVRRNLFAQELL [N9A]	0.722
TKARRNLFNQELL [V3A]	-1.12
TKVRRALFNQELL [N6A]	0.647
TKVRRNLFNAELL [Q10A]	-0.059
TKVRKNLFNQELL [R5K]	0.281
TKVRANAFNQELL [R5A L7A]	0.065
TKVRRNLFNQALL [E11A]	0.0132
AKVRRNLFNQELL [T1A]	1.14
TKVRKNLLNQELL [R5K F8L]	0.397

Study 5
Target: Interferon regulatory factor 5, full length, phosphomimetic (IRF5, Homo sapiens, UniProt Q13568-2, residues 1-514, S451D/S453D/S456D/S462D)
Technique: protein-binding microarray
Form: double-stranded DNA, one strand shown
Sample: in vitro
Tested at: 940 nM top
Setting: 60-bp whole probe
With: salmon DNA 0.4 mg/ml
Baseline: random background probes
Reading: higher = stronger binding
All sequences stand within: GCCTAGCAC … GTCTTGATTCGCTTGACGCTGCTG
Sequence	fitted relative affinity [z-score]
CTAGATATCGGGTTTCGATTAGTGCTA	5.12
GACGGACTGGGACTGGGGATGTGCTAG	-0.299
TTAGATATCAGTCTCAATTAGTGCTAG	0.775
GACAGTTTCGGTTCCGGGACGTGCTAG	14.9
GACGGACTGGGATTTCGGGACGTGCTA	0.0882
ATAGGTTTCGGACTGGGTTAGTGCTAG	6.58
GACGAAATCAGTTTCGAGACGTGCTAG	4.66
TTATAACTGGGGTTTCGATTAGTGCTA	6.02
TCATGCATCTGATTTCTCACTGTGCTA	0.633
TTCGAACTGAGACTGGATTAGTGCTAG	-0.253
TCAAAATGATTGGTTGAACTGTGCTAG	-0.211
TTAGATAACAGTTTCGATTAGTGCTAG	8.07
TGAGATATCAGTATCGATTAGTGCTAG	4.18
TTAGGTATCGGTAACGGTTAGTGCTAG	8.85
TCATGTACATCTCTCTTACTGTGCTAG	0.991
CTAGGTTTCGGTTCCGGTTAGTGCTAG	13.9
TTATGTTTCCTTTCCCTTTAGTGCTAG	1.63
ATGTGTTTACAGATGTTTTTGTGCTAG	-0.0483
TCACTTCTATAGGCTAGAACTGTGCTA	0.0849
GGCATTTTTTTTATCAATCAGTGCTAG	0.359
AAACTTACCTCACTCGTTAAGTGCTAG	0.609
TTAGGTATCCTGTTCCTTTAGTGCTAG	0.32
TTAGGTTTCGGTAGCGGTTAGTGCTAG	14.8
TTAAGTTTCGACTTTCGGTTAGTGCTA	9.13
GACGGTCTCGGTATCCGGACGTGCTAG	5.01

Study 6
Target: XBP1, bZIP domain (human)
Technique: DHFR protein complementation
Sample: yeast
Setting: single substitutions, most at no-binding floor
Baseline: wild-type JUN-FOS pair
Reading: higher = stronger binding
Starting sequence: JUN, bZIP domain (human); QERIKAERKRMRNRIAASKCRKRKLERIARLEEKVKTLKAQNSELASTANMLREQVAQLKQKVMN; partner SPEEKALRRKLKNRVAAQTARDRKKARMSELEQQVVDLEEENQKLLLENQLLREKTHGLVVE
Substitution	binding fitness
R30P	-1.23 natural log
R53S	-1.39 natural log
R30G	-0.96 natural log
E44S	-1.11 natural log
E33H	-0.896 natural log
I28T	-1.12 natural log
I28S	-1.44 natural log
L59A	-0.182 natural log
N42F	-1.45 natural log
A57D	-0.611 natural log
L31Q	-1.44 natural log
A29Q	-0.837 natural log
K36A	-0.433 natural log
K39C	-1.3 natural log
V56D	-0.945 natural log
T48K	-0.886 natural log
T37L	-0.587 natural log
S43T	-0.586 natural log
V35G	-1.4 natural log
R30A	-0.127 natural log
L31N	-1.56 natural log
T37H	-0.564 natural log

Study 7
Target: Protein C-ets-1 (ETS1, Homo sapiens, UniProt P14921, residues 1-441, Y397A, full length assumed)
Technique: protein-binding microarray
Form: double-stranded DNA, one strand shown
Sample: in vitro
Tested at: not given
Setting: k-mer, scored over probes, only values ≥0.25
Reading: higher = stronger binding
Target sequence (chain): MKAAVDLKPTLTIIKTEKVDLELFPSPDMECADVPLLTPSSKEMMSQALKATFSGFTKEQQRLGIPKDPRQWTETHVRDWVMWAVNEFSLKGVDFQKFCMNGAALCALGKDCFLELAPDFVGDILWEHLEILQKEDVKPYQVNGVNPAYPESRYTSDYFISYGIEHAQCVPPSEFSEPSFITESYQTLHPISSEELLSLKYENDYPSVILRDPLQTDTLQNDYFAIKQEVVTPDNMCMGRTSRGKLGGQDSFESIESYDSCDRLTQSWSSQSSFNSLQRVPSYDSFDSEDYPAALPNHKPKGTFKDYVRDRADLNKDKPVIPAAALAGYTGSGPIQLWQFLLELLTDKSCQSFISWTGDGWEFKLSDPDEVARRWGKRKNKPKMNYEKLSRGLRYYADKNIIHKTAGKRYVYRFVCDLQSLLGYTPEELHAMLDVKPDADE
Sequence	E-score
GCAATTGC	0.35
CGACACAA	0.291
GACAATCA	0.268
GAACATCC	0.285
AATTGCAA	0.266
TCTGTCAA	0.281
CCAACAAA	0.29
TTCGACAA	0.253
CTTGTCAA	0.255
ACACGACT	0.27
CATCCGCC	0.381
ACCTCCCC	0.271
AGTTTGTC	0.326
TGCCAACA	0.309

Single results of other studies
Molecule	target	assay	test system	setting	how to read	measurement	result
PhoQ, residues 284 288 289 292 302 303 SSCLAV	PhoP, residues 12 14 15 18 19 NQCAL (Escherichia coli, UniProt P23836)	Sort-seq, refers to: YFP reporter	E. coli	PhoQ-PhoP variant library, with: 10 µM Mg2+	baseline: high Mg2+ state, higher = stronger signaling	fold induction	17.4
